Experimental data pooled from the literature.
Numbered parts are unrelated; each lists some results of a single study.

Block 1 — cell line: HEK-293T-ACE2; tested at: concentration not given; relative to: vehicle; endpoint: cell number
SMILES = CC[C@H](Nc1ncnc2[nH]cnc12)c1nc2cccc(F)c2c(=O)n1-c1ccccc1; value = 101%
SMILES = CCN1CC(CCN2CCOCC2)C(c2ccccc2)(c2ccccc2)C1=O.Cl.O (stereo not drawn); value = 97.5%
SMILES = CCC(CC)[C@H](NC(C)=O)[C@@H]1[C@H](O)[C@@H](C(=O)O)C[C@H]1NC(=N)N.O.O.O; value = 94.2%
SMILES = O=C([O-])[C@H](O)[C@@H](O)[C@H](O)[C@H](O)CO.[Na+]; value = 102%

Block 2 — method: protein binding microarray; molecule type: double-stranded DNA, one strand shown; medium: in vitro; tested at: not given; relative to: not given; direction: higher = stronger binding; endpoint: E-score
Target: Histone acetyltransferase KAT6A, winged helix 1, GST fusion (KAT6A, Homo sapiens, UniProt Q92794, residues 1-85)
Setting: 8-mer, flanks averaged, mean of 2 arrays, mostly near background
Construct (chain): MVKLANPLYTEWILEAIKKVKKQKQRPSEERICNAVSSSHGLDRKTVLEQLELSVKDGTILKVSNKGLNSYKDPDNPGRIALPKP
Strand = CGTTACGC; value = 0.355
Strand = CATCATCA; value = -0.165
Strand = CACGCTTC; value = 0.172
Strand = AGTGGGAC; value = -0.158
Strand = AGGCAAAA; value = -0.136
Strand = ATTGTGTC; value = -0.224
Strand = ATACGTGC; value = -0.0667
Strand = AATTGCCA; value = -0.282

Block 3 — mode: inhibitor; tested at: 20 µM; endpoint: inhibition
Target: Replicase polyprotein 1ab, nsp13 helicase (rep, Severe acute respiratory syndrome coronavirus 2, UniProt P0DTD1)
SMILES = CC(C)(C)NCC(O)c1ccccc1Cl (stereo not drawn); value = 2%
SMILES = C=CC(=O)Nc1ccc2ncnc(Nc3ccc(OCc4cccc(F)c4)c(Cl)c3)c2c1; value = 4.17%
SMILES = C[N+](C)(C)CCOC(N)=O; value = 4.53%
SMILES = NCC(=O)Nc1ccc(-n2nc(C(F)(F)F)cc2-c2ccc3c(ccc4ccccc43)c2)cc1; value = 5.17%
SMILES = CCOC(=O)OC(C)OC(=O)[C@@H]1N2C(=O)[C@@H](NC(=O)[C@H](N)c3ccccc3)[C@H]2SC1(C)C (stereo partly drawn); value = 19%
SMILES = c1ccc(Cn2c(-c3ccc(OC[C@H](C4CCNCC4)n4c(-c5ccccc5)nc5ccccc54)cc3)nc3ccccc32)cc1; value = 52.1%
SMILES = CC(C)(C)c1[nH]cnc1/C=c1\[nH]c(=O)/c(=C/c2ccccc2)[nH]c1=O; value = -20.6%
SMILES = Cc1cc(Cn2cnc3c2C[C@@H](C(=O)O)N(C(=O)C(c2ccccc2)c2ccccc2)C3)ccc1N(C)C; value = 2%
SMILES = CCCNC(=O)N1N=C(c2ccc(N)cc2)c2cc3c(cc2C1C)OCO3 (stereo not drawn); value = 13%
SMILES = COC(=O)c1ccccc1O; value = 3.19%
SMILES = CCn1cc(C(=O)O)c(=O)c2cc(F)c(N3CCNCC3)cc21; value = 2.3%
SMILES = O=C(Nc1ccc([N+](=O)[O-])cc1Cl)c1cc(Cl)ccc1O; value = 10.3%
SMILES = O=C(OCC(O)CO)c1ccccc1Nc1ccnc2cc(Cl)ccc12 (stereo not drawn); value = 2.29%
SMILES = CCn1cnc(C(=O)NC)c1C(=O)NC; value = 2.24%
SMILES = COc1cc(OC)cc(C(=O)NNC(=O)Nc2cccc3ccccc23)c1; value = 5.82%
SMILES = Cc1nc2ccccc2n1Cc1ccc(Cl)cc1; value = 0.83%
SMILES = COc1ccc(Oc2c(Cl)cnn(C3c4ccccc4-c4ccccc43)c2=O)cc1; value = 8.29%
SMILES = CC(=O)OCC1=C(C(=O)O)N2C(=O)[C@@H](NC(=O)CSC(=NC(C)C)NC(C)C)[C@H]2SC1; value = 22.2%
SMILES = CC[C@H]1OC(=O)C[C@@H](O)[C@H](C)[C@@H](O[C@@H]2O[C@H](C)C[C@H](N(C)C)[C@H]2O)[C@@H](CC=O)C[C@@H](C)C(=O)/C=C/[C@]2(C)O[C@H]2[C@@H]1C; value = 1.88%
SMILES = CCOC(=O)c1ccc(-c2ccc(OC(=O)N(C)Cc3cccc(-c4ccncc4)c3)cc2)cc1; value = 3.25%
SMILES = NCCCC(N)(C(=O)O)C(F)F (stereo not drawn); value = -3.04%
SMILES = CC1=NN=C(c2ccc(N)cc2)c2cc3c(cc2C1)OCO3; value = 4.14%
SMILES = O=C(NS(=O)(=O)c1ccc(Br)s1)c1ccc(Cl)cc1Cl; value = 1.13%
SMILES = NC(=O)N1C(=O)/C(=C(\O)c2cccs2)c2cc(Cl)ccc21; value = -0.67%
SMILES = Nc1ncnc2c1nc(Br)n2[C@@H]1O[C@@H]2COP(=O)(O)O[C@H]2[C@H]1O; value = 1.4%

Block 4 — method: universal PBM; molecule type: double-stranded DNA, one strand shown; medium: in vitro; tested at: 600 nM; direction: higher = stronger binding; endpoint: E-score
Target: Sal-like protein 4, full length isoform A (SALL4, Homo sapiens, UniProt Q9UJQ4, residues 1-1053)
Sequence of UniProt Q9UJQ4 (whole entry, looked up): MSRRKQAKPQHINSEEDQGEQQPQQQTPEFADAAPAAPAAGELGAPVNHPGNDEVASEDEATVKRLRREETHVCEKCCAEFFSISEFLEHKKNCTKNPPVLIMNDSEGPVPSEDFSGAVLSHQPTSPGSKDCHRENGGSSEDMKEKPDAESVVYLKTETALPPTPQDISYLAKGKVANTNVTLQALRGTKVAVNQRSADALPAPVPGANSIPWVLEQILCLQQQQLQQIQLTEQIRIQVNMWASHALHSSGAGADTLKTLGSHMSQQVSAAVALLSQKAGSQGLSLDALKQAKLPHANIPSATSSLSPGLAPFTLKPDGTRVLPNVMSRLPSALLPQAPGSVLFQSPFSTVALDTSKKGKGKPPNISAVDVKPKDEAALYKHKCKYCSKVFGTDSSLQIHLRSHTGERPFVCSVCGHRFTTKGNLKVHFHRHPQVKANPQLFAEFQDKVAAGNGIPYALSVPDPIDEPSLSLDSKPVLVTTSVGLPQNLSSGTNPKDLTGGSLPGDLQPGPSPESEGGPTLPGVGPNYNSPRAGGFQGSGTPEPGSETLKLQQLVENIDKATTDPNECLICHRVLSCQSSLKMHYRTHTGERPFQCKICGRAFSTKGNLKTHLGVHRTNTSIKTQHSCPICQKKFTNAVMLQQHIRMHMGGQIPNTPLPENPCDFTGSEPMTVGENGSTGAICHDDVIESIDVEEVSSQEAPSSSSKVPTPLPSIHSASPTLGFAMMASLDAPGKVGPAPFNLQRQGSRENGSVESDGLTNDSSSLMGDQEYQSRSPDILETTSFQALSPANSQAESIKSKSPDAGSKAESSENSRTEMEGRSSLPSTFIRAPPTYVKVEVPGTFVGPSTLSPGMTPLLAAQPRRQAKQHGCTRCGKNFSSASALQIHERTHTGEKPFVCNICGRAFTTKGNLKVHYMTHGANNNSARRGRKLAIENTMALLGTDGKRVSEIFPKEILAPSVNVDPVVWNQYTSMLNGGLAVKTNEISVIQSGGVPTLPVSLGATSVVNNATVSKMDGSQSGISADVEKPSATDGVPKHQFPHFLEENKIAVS
Setting: 8-mer, flanks averaged, mean of replicates
Strand = AAAGGATA; value = 0.257
Strand = GCACCTAA; value = -0.0339
Strand = GCGGCTGA; value = -0.284
Strand = ATAATAGG; value = 0.317
Strand = AATGTGGT; value = 0.175
Strand = CAATATTG; value = 0.356
Strand = GGGTACGA; value = -0.221
Strand = GGCTGCCA; value = -0.25

Block 5 — method: RNA Bind-n-Seq; molecule type: RNA; medium: in vitro; tested at: 365 nM; relative to: no-protein control; direction: higher = stronger binding; endpoint: RBNS enrichment (R)
Target: RNA binding protein fox-1 homolog 2, RRM domain, GST-SBP tag (RBFOX2, Homo sapiens, UniProt O43251-10, residues 100-194)
Setting: natural RNA segment, single round, ends assumed
Target sequence (chain): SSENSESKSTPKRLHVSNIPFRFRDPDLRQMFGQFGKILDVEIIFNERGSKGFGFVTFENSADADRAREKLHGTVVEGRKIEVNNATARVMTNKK
Strand = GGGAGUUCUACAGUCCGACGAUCGCAGGUGGGAUGAGGGAGACAGACCACUUUUCUAUAUUGCAGUGUGAAUGCUGGGCCCCUGCUCAAGUCUACCCUGAUCACCUCAGGGCAUAAAGCAUGUUUCAUUCUCUUGGAAUUCUCGGGUGCCAA; value = 1.74
Strand = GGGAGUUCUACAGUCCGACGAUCCAAUGGUACAACUGCCCAAAUCCACCUUUGGUUUCUGAUGACUUACAAGUGACUAUAGAAGAAAGAGGCCUGGUCUUGAGCAGAGACUCUUGUUCGCAACUCAGAUCACAUGGAAUUCUCGGGUGCCAA; value = 0.343
Strand = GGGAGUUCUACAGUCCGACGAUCAUGCCCUGUGCCUCUUGAGCAGAAAAGAGCACUGACAACUGGGACACCUGGCUCUGUCUUCCUACAGCUGCUCGCACUGACCUGUGGGAACCUGUGGGUCAUCCCCAGGCUGGAAUUCUCGGGUGCCAA; value = 0.334
Strand = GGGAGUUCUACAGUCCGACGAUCCCAAACUGGACCCCUUCUUCAGACCCCCACAAACACCCCAGCUUUCUGGCUUUUCUGAGGGCUAGGGCAUGGUGCCCACCUCUCAAGUAUAAGAAACUGCAUCCUGCCUCUGGAAUUCUCGGGUGCCAA; value = 0.64
Strand = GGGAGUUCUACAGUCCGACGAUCACAGCACCUCAGACCCCAAGUGUGUCUGGAGUUCCCUGUCGGCCAGGGAGAGGACACCAGCACCUGGGACCUCCAGAGAAGCCGCACUGAGCGGACUUGUCGACAGAGGGUGGAAUUCUCGGGUGCCAA; value = 0.33
Strand = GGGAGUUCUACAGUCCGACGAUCAAAGCCACUCUACUAUGAAUGUUAUUGGGGCUACACUUGCCUUUCUUGCCCAAGGGCCUCCUGCAUAGACCUUGUCGGUCAAAUCUUGAGUCCUUGUACAGAAAUGAUAGUGGAAUUCUCGGGUGCCAA; value = 0.364
Strand = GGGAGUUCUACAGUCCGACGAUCAGAGCUUUUCUUCAUCCAGAAUUGCCCUCUGGGCUCCUUUGGUAACAGAUGGAGCUCCUUCCUAGCUAGGGAGACCUUAUGAGAAGUGGAUGGUAGGAGGAGUCACUAAUUGGAAUUCUCGGGUGCCAA; value = 0.281
Strand = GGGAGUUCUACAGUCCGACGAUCACUUGAAUGGAACAGAAGCAAGCCUUAUGUUUUGGAAGGUCUGCGGUAAAAUGCUGUGACUGUUUACUUUCAAUUGCAUUGUGUGUUGCCUGUGACUGCUUUCAAACGCUUGGAAUUCUCGGGUGCCAA; value = 18.2

Block 6 — observed: enzyme activity; mode: inhibitor; tested at: 20 µM; setting: hit confirmation, no DTT; endpoint: inhibition
Target: Replicase polyprotein 1ab, main protease (rep, Severe acute respiratory syndrome coronavirus 2, UniProt P0DTD1)
SMILES = COC(=O)/C=C/c1cc(O)ccc1O; value = 52.7%
SMILES = N[C@@H](Cc1ccc(O)c(O)c1)C(=O)O; value = 56.6%
SMILES = O=C(CCl)c1ccccc1; value = 110%
SMILES = O=c1c(O)cccc2cc(O)c(O)c(O)c12; value = 111%

A few entries again (block 4):
Strand = CAATATTG; value = 0.356
Strand = AATGTGGT; value = 0.175
Strand = AAAGGATA; value = 0.257
